Experimental data gathered from unrelated publications.
Every numbered part comes from another study and shows a few of its results, in no order.
Chain of UniProt Q8WU08 (whole entry, looked up): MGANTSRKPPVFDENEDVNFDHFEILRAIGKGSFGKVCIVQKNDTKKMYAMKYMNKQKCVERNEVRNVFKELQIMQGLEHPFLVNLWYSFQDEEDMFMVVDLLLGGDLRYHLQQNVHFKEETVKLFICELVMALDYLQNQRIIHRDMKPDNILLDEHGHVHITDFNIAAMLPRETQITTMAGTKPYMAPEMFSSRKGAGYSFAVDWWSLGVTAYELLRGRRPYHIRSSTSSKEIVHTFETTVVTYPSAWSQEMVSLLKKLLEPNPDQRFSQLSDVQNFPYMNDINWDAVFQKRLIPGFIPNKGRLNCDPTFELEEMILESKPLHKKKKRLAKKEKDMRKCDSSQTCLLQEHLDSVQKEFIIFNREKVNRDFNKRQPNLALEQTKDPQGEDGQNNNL
Chain of UniProt P16591 (whole entry, looked up): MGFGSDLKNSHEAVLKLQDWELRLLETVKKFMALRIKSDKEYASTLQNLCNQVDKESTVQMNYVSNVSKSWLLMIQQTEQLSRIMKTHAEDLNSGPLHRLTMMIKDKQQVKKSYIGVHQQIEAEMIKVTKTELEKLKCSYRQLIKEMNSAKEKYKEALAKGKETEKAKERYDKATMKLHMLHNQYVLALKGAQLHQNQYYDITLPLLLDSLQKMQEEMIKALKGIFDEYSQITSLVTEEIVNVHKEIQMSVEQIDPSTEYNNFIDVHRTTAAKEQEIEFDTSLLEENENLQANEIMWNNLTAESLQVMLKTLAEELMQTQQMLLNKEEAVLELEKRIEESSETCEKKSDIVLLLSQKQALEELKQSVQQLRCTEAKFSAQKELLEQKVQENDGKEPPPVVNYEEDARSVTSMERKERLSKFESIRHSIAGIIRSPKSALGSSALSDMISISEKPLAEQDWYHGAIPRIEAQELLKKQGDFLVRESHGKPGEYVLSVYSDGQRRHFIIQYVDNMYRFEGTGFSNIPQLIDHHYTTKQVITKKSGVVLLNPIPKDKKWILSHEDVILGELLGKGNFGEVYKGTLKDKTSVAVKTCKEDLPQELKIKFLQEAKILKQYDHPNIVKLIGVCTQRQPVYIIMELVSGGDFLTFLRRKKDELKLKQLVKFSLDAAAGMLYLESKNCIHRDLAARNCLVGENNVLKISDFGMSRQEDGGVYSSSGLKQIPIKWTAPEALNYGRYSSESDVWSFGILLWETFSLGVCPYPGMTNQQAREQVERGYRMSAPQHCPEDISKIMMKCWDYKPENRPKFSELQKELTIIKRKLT
Chain of UniProt Q96J92 (whole entry, looked up): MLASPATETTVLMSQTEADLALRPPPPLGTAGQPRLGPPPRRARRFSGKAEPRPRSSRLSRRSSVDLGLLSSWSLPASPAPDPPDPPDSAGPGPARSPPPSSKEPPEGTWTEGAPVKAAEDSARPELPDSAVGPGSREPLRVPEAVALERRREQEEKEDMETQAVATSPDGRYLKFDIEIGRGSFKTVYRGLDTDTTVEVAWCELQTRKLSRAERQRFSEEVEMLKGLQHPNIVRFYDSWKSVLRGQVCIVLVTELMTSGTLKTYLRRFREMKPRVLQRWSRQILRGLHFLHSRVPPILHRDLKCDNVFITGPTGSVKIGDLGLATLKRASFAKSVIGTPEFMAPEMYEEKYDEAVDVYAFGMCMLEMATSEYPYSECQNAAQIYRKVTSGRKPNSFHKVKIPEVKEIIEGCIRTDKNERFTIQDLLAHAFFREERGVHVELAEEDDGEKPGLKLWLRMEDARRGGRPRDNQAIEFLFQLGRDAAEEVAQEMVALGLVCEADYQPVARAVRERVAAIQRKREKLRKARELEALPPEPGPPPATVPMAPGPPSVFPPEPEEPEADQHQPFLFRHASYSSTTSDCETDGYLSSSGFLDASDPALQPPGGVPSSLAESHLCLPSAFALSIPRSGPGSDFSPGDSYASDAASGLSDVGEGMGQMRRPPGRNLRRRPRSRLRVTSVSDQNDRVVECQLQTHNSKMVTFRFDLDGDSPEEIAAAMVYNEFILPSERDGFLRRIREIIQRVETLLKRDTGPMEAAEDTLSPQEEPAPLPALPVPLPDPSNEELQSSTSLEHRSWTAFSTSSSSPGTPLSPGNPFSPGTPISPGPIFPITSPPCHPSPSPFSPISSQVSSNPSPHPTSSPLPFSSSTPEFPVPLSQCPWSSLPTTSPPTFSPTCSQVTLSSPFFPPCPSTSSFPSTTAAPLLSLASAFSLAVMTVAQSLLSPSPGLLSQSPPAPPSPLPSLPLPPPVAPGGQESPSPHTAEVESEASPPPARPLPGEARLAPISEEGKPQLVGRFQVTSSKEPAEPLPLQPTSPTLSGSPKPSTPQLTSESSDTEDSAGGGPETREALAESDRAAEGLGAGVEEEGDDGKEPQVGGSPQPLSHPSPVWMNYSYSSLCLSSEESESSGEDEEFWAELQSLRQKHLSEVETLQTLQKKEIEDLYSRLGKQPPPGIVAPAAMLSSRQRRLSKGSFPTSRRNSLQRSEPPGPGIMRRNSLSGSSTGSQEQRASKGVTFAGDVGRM
Chain of UniProt P27037 (whole entry, looked up): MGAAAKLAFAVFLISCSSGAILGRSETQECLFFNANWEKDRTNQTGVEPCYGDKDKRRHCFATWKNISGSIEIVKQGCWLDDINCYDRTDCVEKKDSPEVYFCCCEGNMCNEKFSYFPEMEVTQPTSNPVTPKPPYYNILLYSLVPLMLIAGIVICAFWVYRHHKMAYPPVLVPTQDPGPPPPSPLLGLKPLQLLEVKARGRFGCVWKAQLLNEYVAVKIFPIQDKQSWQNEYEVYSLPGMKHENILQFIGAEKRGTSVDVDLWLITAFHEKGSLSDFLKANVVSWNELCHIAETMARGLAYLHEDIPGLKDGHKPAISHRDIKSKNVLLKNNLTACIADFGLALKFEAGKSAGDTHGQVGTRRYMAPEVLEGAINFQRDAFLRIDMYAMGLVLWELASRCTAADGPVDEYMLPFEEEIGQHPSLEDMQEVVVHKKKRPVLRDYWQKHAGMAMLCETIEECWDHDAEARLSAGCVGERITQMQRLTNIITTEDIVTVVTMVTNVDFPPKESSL
Chain of UniProt Q96GD4 (whole entry, looked up): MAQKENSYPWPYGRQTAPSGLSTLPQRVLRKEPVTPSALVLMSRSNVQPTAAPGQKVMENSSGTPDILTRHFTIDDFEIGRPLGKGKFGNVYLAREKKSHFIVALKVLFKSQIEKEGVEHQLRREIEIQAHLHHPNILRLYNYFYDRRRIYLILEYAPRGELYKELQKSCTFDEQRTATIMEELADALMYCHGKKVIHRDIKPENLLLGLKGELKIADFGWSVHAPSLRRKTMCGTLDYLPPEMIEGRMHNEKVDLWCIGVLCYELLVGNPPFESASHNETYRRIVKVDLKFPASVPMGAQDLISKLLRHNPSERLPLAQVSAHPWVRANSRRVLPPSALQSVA

Block 1
Target: Serine/threonine-protein kinase TAO1 (TAOK1, Homo sapiens, UniProt Q7L7X3)
Chain of UniProt Q7L7X3 (whole entry, looked up): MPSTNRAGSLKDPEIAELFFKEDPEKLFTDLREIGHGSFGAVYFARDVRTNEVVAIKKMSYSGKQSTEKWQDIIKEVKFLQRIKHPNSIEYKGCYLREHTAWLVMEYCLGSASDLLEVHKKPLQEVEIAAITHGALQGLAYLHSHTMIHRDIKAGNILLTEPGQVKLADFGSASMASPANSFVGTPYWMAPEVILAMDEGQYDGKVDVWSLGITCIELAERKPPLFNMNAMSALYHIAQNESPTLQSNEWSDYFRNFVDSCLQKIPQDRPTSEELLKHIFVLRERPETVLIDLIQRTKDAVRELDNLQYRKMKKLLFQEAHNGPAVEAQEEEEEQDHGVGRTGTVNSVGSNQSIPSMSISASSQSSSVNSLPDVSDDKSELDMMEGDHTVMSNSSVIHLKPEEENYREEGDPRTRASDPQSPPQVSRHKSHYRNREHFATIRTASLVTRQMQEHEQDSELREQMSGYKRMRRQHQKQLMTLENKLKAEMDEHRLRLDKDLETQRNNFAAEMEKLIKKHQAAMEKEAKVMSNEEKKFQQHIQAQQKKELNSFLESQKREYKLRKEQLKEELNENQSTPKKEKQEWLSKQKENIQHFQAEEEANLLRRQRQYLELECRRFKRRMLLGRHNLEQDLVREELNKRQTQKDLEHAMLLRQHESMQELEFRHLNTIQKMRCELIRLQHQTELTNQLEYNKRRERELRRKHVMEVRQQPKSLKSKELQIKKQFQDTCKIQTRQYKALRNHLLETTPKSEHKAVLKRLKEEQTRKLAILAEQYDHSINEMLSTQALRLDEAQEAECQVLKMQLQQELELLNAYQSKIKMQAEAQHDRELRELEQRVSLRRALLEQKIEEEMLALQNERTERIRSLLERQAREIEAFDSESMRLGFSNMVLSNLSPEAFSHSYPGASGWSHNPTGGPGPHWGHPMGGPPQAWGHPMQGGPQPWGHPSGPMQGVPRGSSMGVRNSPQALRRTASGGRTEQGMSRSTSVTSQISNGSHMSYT
Observed: enzyme activity
Mode: inhibitor
Tested at: 0.5 µM
Relative to: control
SMILES	remaining activity [%]
CNc1cc2c(Nc3cccc(Br)c3)ncnc2cn1	92.4
CC(C)N(CCC(=O)c1ccc2ccccc2c1)Cc1ccccc1	94.9
N#CC(c1ccnc(NCCc2cccnc2)n1)c1nc2ccccc2s1 (centres unmarked)	98
N#C/C(=C(/N)SC1C=CC=CC1)c1cccc(C(O)c2ccncc2)c1 (centres unmarked)	89.2
O=C(c1ccccc1)c1ccc(N2CCOCC2)cc1O	100
O=C(O)/C=C/c1cc(Br)c(Br)c(Br)c1Br	56.3
COc1cc2c(Nc3ccc(Br)cc3F)ncnc2cc1OCC1CCN(C)CC1	103
c1cc(-c2cnn3cc(-c4ccc(OCCN5CCCCC5)cc4)cnc23)ccn1	84.8
COc1cc2c(N3CCN(C(=O)Nc4ccc(OC(C)C)cc4)CC3)ncnc2cc1OCCCN1CCCCC1	103
O=Nc1c(-c2c(O)[nH]c3ccccc23)[nH]c2ccccc12	102
O=c1c(-c2ccc(F)cc2)c(-c2ccncc2)[nH]n1-c1ccc(Cl)cc1	102
FC(F)(F)c1ccc(/C=C/c2nc(COc3ccc(CCCCn4ccnn4)cc3)co2)cc1	102
CC(C)(C)c1nc2c3cc[nH]c(=O)c3c3cc(F)ccc3c2[nH]1	86.9
O=C1NC(=O)/C(=C/c2ccc3c(c2)OC(F)(F)O3)S1	90
CC(C)n1cnc2c(Nc3cccc(Cl)c3)nc(NCCO)nc21	94.4
Nc1nc(Nc2ccc(S(N)(=O)=O)cc2)nn1C(=S)Nc1c(F)cccc1F	11.3
O=C1c2ccccc2-c2nc3nnnn3nc21	90.2
C[C@@H](N)[C@H]1CC[C@H](C(=O)Nc2ccncc2)CC1	96.6
CCCCc1c(-c2ccc(O)cc2)[nH]c2nccnc12	70.9
NC(=O)c1ccc(-c2nc(-c3ccc4c(c3)OCCO4)c(-c3ccccn3)[nH]2)cc1	95.4
CCN(CC)CCCCN1c2ccccc2Oc2ccc(Cl)cc21	97.9

Block 2
Compound: CC(C)(O)c1cncc(-c2nc3ccc(F)cc3n2C2CC2)c1
Tested at: 1 µM
target	test	remaining binding [%]
ACVR2A (Homo sapiens, UniProt P27037)	cell-free assay, competition with immobilised ligand	87
SIK1 (Homo sapiens, UniProt P57059)	competition binding	100
EGFR (Homo sapiens, UniProt P00533, L858R/T790M)	cell-free assay, competition with immobilised ligand	92
ROCK2 (Homo sapiens, UniProt O75116)	cell-free assay, competition with immobilised ligand	92
CDK11A (Homo sapiens, UniProt Q9UQ88)	binding, competition with immobilised ligand	100
FER (Homo sapiens, UniProt P16591)	cell-free assay, competition with immobilised ligand	100
CDK15 (Homo sapiens, UniProt Q96Q40)	cell-free assay, competition with immobilised ligand	84
Aurora kinase B (AURKB, Homo sapiens, UniProt Q96GD4)	cell-free assay, competition with immobilised ligand	100
PRKG2 (Homo sapiens, UniProt Q13237)	cell-free assay, competition with immobilised ligand	90
PIP4K2B (Homo sapiens, UniProt P78356)	cell-free assay, competition with immobilised ligand	99
CAMK1 (Homo sapiens, UniProt Q14012)	cell-free assay, competition with immobilised ligand	100
ALK (Homo sapiens, UniProt Q9UM73, C1156Y)	cell-free assay, competition with immobilised ligand	100
TEC (Homo sapiens, UniProt P42680)	cell-free assay, competition with immobilised ligand	100
CLK2 (Homo sapiens, UniProt P49760)	cell-free assay, competition with immobilised ligand	100
STK32A (Homo sapiens, UniProt Q8WU08)	cell-free assay, competition with immobilised ligand	100
WNK4 (Homo sapiens, UniProt Q96J92)	cell-free assay, competition with immobilised ligand	100
FLT3 (Homo sapiens, UniProt P36888, D835Y)	cell-free assay, competition with immobilised ligand	100
INSRR (Homo sapiens, UniProt P14616)	cell-free assay, competition with immobilised ligand	100

Block 3
Organism: Plasmodium berghei
Mode: inhibitor
Cells: Huh-7
Strain: GFP-expressing, liver stage
Tested at: 10 µM
Time: 24 h
Relative to: untreated control
SMILES	infection rate
CCN1CCCC(OC(=O)C(c2ccccc2)c2ccccc2)C1 (centres unmarked)	71.2%
Fc1ccc([C@@H]2CCNC[C@H]2COc2ccc3c(c2)OCO3)cc1	94.7%
CN(C)[C@@H]1C(O)=C(C(N)=O)C(=O)[C@@]2(O)C(O)=C3C(=O)c4c(O)cccc4[C@@](C)(O)[C@H]3C[C@@H]12	65%
CC1=C(/C=C/C(C)=C/C=C/C(C)=C/C(=O)O)C(C)(C)CCC1	67.8%
C[C@]12C=CC(=O)C=C1CC[C@H]1[C@@H]3C[C@@H](O)[C@](O)(C(=O)CO)[C@@]3(C)C[C@H](O)[C@@]12F	116%
CC1(C)O[C@@H]2C[C@H]3[C@@H]4CCC5=CC(=O)C=C[C@]5(C)[C@@]4(F)[C@@H](O)C[C@]3(C)[C@]2(C(=O)CO)O1	70.8%
Cn1c([N+](=O)[O-])cnc1COC(N)=O	93.7%
CC1(C)S[C@@H]2[C@H](NC(=O)[C@H](C(=O)O)c3ccsc3)C(=O)N2[C@H]1C(=O)O	36.3%
COc1cc(C(=O)N2CCOCC2)cc(OC)c1OC	119%
CNCCCC1c2ccccc2C=Cc2ccccc21	86.3%
O=P(O)(O)C(O)(Cc1cccnc1)P(=O)(O)O	83.7%
c1ccc2c(c1)CCCC2C1=NCCN1 (centres unmarked)	97.7%

Block 4
Target: Beta-1 adrenergic receptor (ADRB1, Homo sapiens, UniProt P08588)
Chain of UniProt P08588 (whole entry, looked up): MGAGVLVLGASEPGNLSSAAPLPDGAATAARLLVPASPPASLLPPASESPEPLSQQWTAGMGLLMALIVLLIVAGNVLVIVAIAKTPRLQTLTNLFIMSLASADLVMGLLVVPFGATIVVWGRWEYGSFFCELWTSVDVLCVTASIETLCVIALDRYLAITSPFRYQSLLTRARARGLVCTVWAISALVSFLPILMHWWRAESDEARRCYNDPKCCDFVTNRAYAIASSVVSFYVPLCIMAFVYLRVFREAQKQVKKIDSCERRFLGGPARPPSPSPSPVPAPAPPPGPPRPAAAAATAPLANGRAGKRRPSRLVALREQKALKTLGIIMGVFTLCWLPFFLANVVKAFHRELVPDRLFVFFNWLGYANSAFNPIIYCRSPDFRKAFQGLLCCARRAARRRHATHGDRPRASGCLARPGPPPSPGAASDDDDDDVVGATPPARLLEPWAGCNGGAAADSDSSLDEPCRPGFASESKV
Mode: agonist
Compound	EC50 [µM]
Cc1ccc(C(=O)Nc2cccc(C(F)(F)F)c2)cc1-c1ccc2nc(NCCN3CCOCC3)ncc2c1	≥ 100
Cc1noc2c(-c3cccnc3NCC3CCOCC3)cc(-c3ccccc3)nc12	≥ 100
COc1ccccc1OCCNCC(O)CCOc1cccc2[nH]c3ccccc3c12 (centres unmarked)	≥ 100
Cc1noc2c(-c3cccnc3NCCN(C)C)cc(-c3ccccc3)nc12	≥ 100
CC(C)(C)CC(O)CNc1nc(C(F)(F)F)ns1 (centres unmarked)	≥ 100
Cc1ccc(C)c(-c2cc(C)c3ccccc3n2)c1	≥ 100
OCc1n[nH]c2c1CN(Cc1cccc(OCC(O)CN3CCOCC3)c1)CC2 (centres unmarked)	28.2
Clc1cccc(N2CCN(Cc3cnn(-c4ccccc4)c3)CC2)c1	≥ 100
O=C1c2c(nc(CNCc3cccc(Cl)c3)n2Cc2ccccc2)NCCN1CCOc1ccccc1	≥ 100
N#Cc1ccccc1NC(=O)c1sc2cc(F)ccc2c1Cl	≥ 100
OC(c1nc(Nc2cccc(N3CCOCC3)c2)n[nH]1)C1CC1 (centres unmarked)	≥ 100
COc1ccccc1N1CCN(C(=O)c2ccc3c(c2)OCCO3)CC1	≥ 100
Cc1noc2c(N(C)C)cc(-c3ccsc3)nc12	≥ 100
CN1CCN(C)c2cc(-c3ccc(N4CCOCC4)cc3)ncc2C1	≥ 100
Cc1noc2c(N(C)C)cc(-c3ccccc3)nc12	≥ 100
CCOc1ccc(C(=O)N2CCc3cc(OC)c(OC)cc3C2COc2ccc3c(C)cc(=O)oc3c2)cc1OCC (centres unmarked)	≥ 100
OC(CNc1nccc(-c2cccnc2)n1)COc1ccc(Cl)cc1 (centres unmarked)	≥ 100
